Assay results collected from several papers.
Each line is one published result; not all experiments were run side by side.
Effect on: metabolic stability
Host: mouse

`N=C(N/N=C/c1ccc(Cl)cc1)N/N=C/c1ccc(Cl)cc1` gave a half-life of 159 min (liver microsomes; 1 µM, pH 7.4).
The half-life of `O=c1c2ccc(OC3CCNCC3)cc2[nH]c2cc(F)cc(Cl)c12` is reported as > 60 min (liver microsomes; 1 µM, pH 7.4).
The half-life of `CNCCNC(=O)c1cc(C(C)C)nc2c1cnn2C(C)C` is reported as 7.9 min (liver microsomes).
`Cl.N=C(NN=Cc1ccc(OC(F)(F)F)cc1)NN=Cc1ccc(OC(F)(F)F)cc1` gave a half-life of 172 min (liver microsomes; 1 µM, pH 7.4).
`O=c1c2c([nH]c3cc(OC(F)(F)F)ccc13)CCCC2` gave a half-life of 10 min (liver microsomes; 1 µM, pH 7.4).
`Cc1ncsc1-c1ccc([C@H](C)NC(=O)[C@@H]2C[C@@H](O)CN2C(=O)[C@@H](NC(=O)CCCN2CCN(CCCC(=O)NCCCn3cc(-c4ccc5c(c4)CCN5C(=O)Cc4cccc(OC(F)(F)F)c4)c4c(N)ncnc43)CC2)C(C)(C)C)cc1` gave a half-life of 9.8 min (liver S9; 1 µM).
For `O=c1c2c([nH]c3ccc(F)c(Oc4ccc(OC(F)(F)F)cc4)c13)CCCC2`, the half-life was 28.3 min (liver microsomes; 1 µM, pH 7.4).
For `CC(C)c1cc(C(=O)NCCN2CCCC2)c2cnn(C(C)C)c2n1`, the half-life was 28.2 min (liver microsomes).
With `Cc1ncsc1-c1ccc([C@H](C)NC(=O)[C@@H]2C[C@@H](O)CN2C(=S)[C@H](C)NC(=O)CCCCCCCCCCC(=O)N2CCC(n3cc(-c4ccc5c(c4)CCN5C(=O)Cc4cccc(OC(F)(F)F)c4)c4c(N)ncnc43)CC2)cc1` the half-life was 53.5 min (liver S9; 1 µM).
`CC(C)C[C@@H]1CCO[C@@H]2[C@H](CN[C@@H]2C(=O)N[C@H]2[C@H]3O[C@H](SCC/C=C\[C@H]2C)[C@H](O)[C@@H](O)[C@H]3O)C1` has a half-life of 34.5 min (liver microsomes; pH 7.4).
`Cc1ncsc1-c1ccc([C@H](C)NC(=O)[C@@H]2C[C@@H](O)CN2C(=O)[C@@H](NC(=O)CCN2CCC(C#Cc3ccc(C(=O)NCCCn4cc(-c5ccc6c(c5)CCN6C(=O)Cc5cccc(OC(F)(F)F)c5)c5c(N)ncnc54)cc3)CC2)C(C)(C)C)cc1` has a half-life of 15.6 min (liver S9; 1 µM).
The half-life of `Cl.N=C(N/N=C/c1cnc2cc(Cl)ccc2c1)N/N=C/c1cnc2cc(Cl)ccc2c1` is reported as 24.9 min (liver microsomes; 1 µM, pH 7.4).
With `Cc1ncsc1-c1ccc([C@H](CC(=O)NCCCCCCCCCCC(=O)NCCCn2cc(-c3ccc4c(c3)CCN4C(=O)Cc3cccc(OC(F)(F)F)c3)c3c(N)ncnc32)NC(=O)[C@@H]2C[C@@H](O)CN2C(=O)[C@@H](NC(=O)C2(F)CC2)C(C)(C)C)cc1` the half-life was 18 min (liver S9; 1 µM).
For `O=c1c2ccc(OCc3cccc(OC(F)(F)F)c3)cc2[nH]c2cc(F)cc(Cl)c12`, the half-life was > 60 min (liver microsomes; 1 µM, pH 7.4).

A few entries again:
With `Cc1ncsc1-c1ccc([C@H](CC(=O)NCCCCCCCCCCC(=O)NCCCn2cc(-c3ccc4c(c3)CCN4C(=O)Cc3cccc(OC(F)(F)F)c3)c3c(N)ncnc32)NC(=O)[C@@H]2C[C@@H](O)CN2C(=O)[C@@H](NC(=O)C2(F)CC2)C(C)(C)C)cc1` the half-life was 18 min (liver S9; 1 µM).
`Cl.N=C(NN=Cc1ccc(OC(F)(F)F)cc1)NN=Cc1ccc(OC(F)(F)F)cc1` gave a half-life of 172 min (liver microsomes; 1 µM, pH 7.4).
